# Assay results collected from several papers.
# Each line is one published result; not all experiments were run side by side. Several values in a cell are separate wells, animals, samples, runs or records. ± marks the error that the study gave.
SMILES,test,system,conditions,how to read,measurement,value
NNc1ccccc1,,PBS,"2.5 h, 37 °C",relative to: initial amount,remaining fraction,0.65 and 0.62 and 0.72
CC(C)C[C@@H]1NC(=O)CNC(=O)[C@H](CC(N)=O)NC(=O)[C@H](CCCNC(=N)N)NC(=O)[C@H]([C@@H](C)O)NC(=O)[C@@H]2CSSC[C@@H]3NC(=O)[C@H]([C@@H](C)O)NC(=O)CNC(=O)CNC(=O)[C@H](C(C)C)NC(=O)[C@@H]4CSSC[C@H](NC(=O)[C@H]([C@@H](C)O)NC(=O)[C@H](CSSC[C@H](NC(=O)[C@H](CCCCN)NC(=O)[C@@H]5CCCN5C1=O)C(=O)NCC(=O)N[C@@H](CCC(=O)O)C(=O)N[C@@H]([C@@H](C)O)C(=O)N4)NC(=O)CNC(=O)[C@@H]1CCCN1C(=O)[C@H]([C@@H](C)O)NC(=O)[C@H](CC(N)=O)NC3=O)C(=O)N[C@@H](CO)C(=O)N[C@@H](Cc1c[nH]c3ccccc13)C(=O)N1CCC[C@H]1C(=O)N[C@@H](C(C)C)C(=O)N2,HPLC,water,"180 µM, 14 days, 37 °C, deamidation stability",,remaining peptide,93.7 ± 5.2%
CCCCN1CCC(COC(=O)c2ccc(N)c(O[11CH3])c2)CC1,,phosphate buffer,"up to 2.5 h, room temperature",,remaining radioligand,94.7 ± 0.7%
COc1ccc(C(=O)OCOP(=O)(CC/C=C(\C)COC(C)=O)Oc2ccc(C(C)C)cc2)cc1 (stereo not shown),,50% CD1 mouse plasma,"100 µM, 2 h, pH 7.5, 37 °C",,remaining compound,0%
CC[C@H](C)[C@H](N)C(=O)N[C@H](CC(C)C)C(=O)N[C@@H](CCCNC(=N)N)C(=O)N[C@@H](Cc1c[nH]c2ccccc12)C(=O)N[C@@H](CO)C(=O)N[C@@H](CCCNC(=N)N)C(=O)N[C@@H](CCCCN)C(=O)N[C@@H](CC(C)C)C(=O)N1CCC[C@H]1C(=O)N[C@@H](CS)C(=O)N[C@H](C(=O)N[C@@H](CO)C(N)=O)C(C)C,"12G5 competition, SUP-T1 cells",human plasma,"concentration not given, 8 h",,remaining activity,57 ± 11%
CC(C)C[C@@H]1NC(=O)CNC(=O)[C@H](CC(N)=O)NC(=O)[C@H](CCCNC(=N)N)NC(=O)[C@H]([C@@H](C)O)NC(=O)[C@@H]2CSSC[C@@H]3NC(=O)[C@H]([C@@H](C)O)NC(=O)[C@H](CCCCN)NC(=O)CNC(=O)[C@H](C(C)C)NC(=O)[C@@H]4CSSC[C@H](NC(=O)[C@H]([C@@H](C)O)NC(=O)[C@H](CSSC[C@H](NC(=O)[C@H](C(C)C)NC(=O)[C@@H]5CCCN5C1=O)C(=O)NCC(=O)N[C@@H](CCC(=O)O)C(=O)N[C@@H]([C@@H](C)O)C(=O)N4)NC(=O)CNC(=O)[C@@H]1CCCN1C(=O)[C@H]([C@@H](C)O)NC(=O)[C@H](CC(N)=O)NC3=O)C(=O)N[C@@H](CO)C(=O)N[C@@H](Cc1c[nH]c3ccccc13)C(=O)N1CCC[C@H]1C(=O)N[C@@H](C(C)C)C(=O)N2,HPLC,ammonium bicarbonate 0.1 M,"180 µM, 7 days, pH 9.0, 37 °C, deamidation stability",,remaining peptide,76.7 ± 2.7%
CC[C@@H](C)[C@@H](NC(C)=O)C(=O)N[C@@H](CC(C)C)C(=O)N[C@@H](CCCNC(=N)N)C(=O)N[C@@H](Cc1c[nH]c2ccccc12)C(=O)N[C@@H](CO)C(=O)N[C@@H](CCCNC(=N)N)C(=O)N[C@@H](CCCCN)C(=O)N[C@@H](CC(C)C)C(=O)N1CCC[C@H]1C(=O)N[C@@H](CS)C(=O)N[C@H](C(=O)N[C@@H](CO)C(N)=O)C(C)C,"12G5 competition, SUP-T1 cells",human plasma,"20 µM, 2 h, 37 °C",,remaining activity,60 ± 8%
CCC[C@@](N)(CO)CCc1ccc(OCCCCCC(C)C)cc1,,mouse liver microsomes,1 h,,remaining compound,42%
CC[C@@H](C)[C@@H](NC(=O)[C@@H](Cc1ccc(O)cc1)NC(=O)[C@H]1CCCN1C(=O)[C@@H](CCCNC(=N)N)NC(=O)[C@H](N)Cc1c[nH]cn1)C(=O)N[C@H](C)C(=O)N[C@H](Cc1c[nH]cn1)C(=O)N[C@H](CCCNC(=N)N)C(=O)N[C@H](CCCCNC(=O)c1cccc(S(=O)(=O)F)c1)C(=O)N[C@H](Cc1ccc(O)cc1)C(=O)N[C@H](CO)C(=O)N[C@H](Cc1ccccc1)C(N)=O,,10% human serum,4 h,,remaining compound,110% and 109%
CC(C)C[C@@H]1NC(=O)[C@H](CC(N)=O)NC(=O)[C@H](CCCNC(=N)N)NC(=O)[C@H]([C@@H](C)O)NC(=O)[C@@H]2CSSC[C@@H]3NC(=O)[C@H]([C@@H](C)O)NC(=O)CNC(=O)CNC(=O)[C@H](C(C)C)NC(=O)[C@@H]4CSSC[C@H](NC(=O)[C@H]([C@@H](C)O)NC(=O)[C@H](CSSC[C@H](NC(=O)[C@H](C(C)C)NC(=O)[C@@H]5CCCN5C(=O)[C@H](CC(C)C)NC1=O)C(=O)NCC(=O)N[C@@H](CCC(=O)O)C(=O)N[C@@H]([C@@H](C)O)C(=O)N4)NC(=O)CNC(=O)[C@@H]1CCCN1C(=O)[C@H]([C@@H](C)O)NC(=O)[C@H](CC(N)=O)NC3=O)C(=O)N[C@@H](CO)C(=O)N[C@@H](Cc1c[nH]c3ccccc13)C(=O)N1CCC[C@H]1C(=O)N[C@@H](C(C)C)C(=O)N2,HPLC,ammonium bicarbonate 0.1 M,"180 µM, 14 days, pH 9.0, 37 °C, deamidation stability",,remaining peptide,95.6 ± 4.2%
CC[C@@H](C)[C@@H](NC(=O)[C@@H](Cc1ccc(O)cc1)NC(=O)[C@H]1CCCN1C(=O)[C@@H](CCCNC(=N)N)NC(=O)[C@H](N)Cc1c[nH]cn1)C(=O)N[C@H](C)C(=O)N[C@H](Cc1c[nH]cn1)C(=O)N[C@H](CCCNC(=N)N)C(=O)N[C@@H](C(=O)N[C@H](Cc1ccc(O)cc1)C(=O)N[C@H](CO)C(=O)N[C@H](Cc1ccccc1)C(N)=O)C(C)C,,10% human serum,0.5 h,,remaining compound,105% and 106%
CC(C)C[C@@H]1NC(=O)CNC(=O)[C@H](CC(N)=O)NC(=O)[C@H](CCCNC(=N)N)NC(=O)[C@H]([C@@H](C)O)NC(=O)[C@@H]2CSSC[C@@H]3NC(=O)[C@H]([C@@H](C)O)NC(=O)CNC(=O)[C@H](CCCCN)NC(=O)[C@H](C(C)C)NC(=O)[C@@H]4CSSC[C@H](NC(=O)[C@H]([C@@H](C)O)NC(=O)[C@H](CSSC[C@H](NC(=O)[C@H](C(C)C)NC(=O)[C@@H]5CCCN5C1=O)C(=O)NCC(=O)N[C@@H](CCC(=O)O)C(=O)N[C@@H]([C@@H](C)O)C(=O)N4)NC(=O)CNC(=O)[C@@H]1CCCN1C(=O)[C@H]([C@@H](C)O)NC(=O)[C@H](CC(N)=O)NC3=O)C(=O)N[C@@H](CO)C(=O)N[C@@H](Cc1c[nH]c3ccccc13)C(=O)N1CCC[C@H]1C(=O)N[C@@H](C(C)C)C(=O)N2,HPLC,ammonium bicarbonate,"180 µM, 7 days, pH 9.0, 25 °C, deamidation stability",,remaining peptide,97.3 ± 0.4%
CSCC[C@H](NC(=O)[C@H](CCCCN)NC(=O)[C@H](CCCNC(=N)N)NC(=O)[C@H](CO)NC(=O)[C@H](Cc1c[nH]c2ccccc12)NC(=O)[C@H](CCCNC(=N)N)NC(=O)[C@H](CC(C)C)NC(=O)[C@@H](CO)NC(C)=O)C(=O)N1CCC[C@H]1C(=O)N[C@@H](CS)C(=O)N[C@H](C(=O)N[C@@H](CO)C(N)=O)C(C)C,"12G5 competition, SUP-T1 cells",human plasma,"concentration not given, 8 h",,remaining activity,52 ± 2%

# For quick reference, copied from above:
SMILES,test,system,conditions,how to read,measurement,value
COc1ccc(C(=O)OCOP(=O)(CC/C=C(\C)COC(C)=O)Oc2ccc(C(C)C)cc2)cc1 (stereo not shown),,50% CD1 mouse plasma,"100 µM, 2 h, pH 7.5, 37 °C",,remaining compound,0%
CC(C)C[C@@H]1NC(=O)CNC(=O)[C@H](CC(N)=O)NC(=O)[C@H](CCCNC(=N)N)NC(=O)[C@H]([C@@H](C)O)NC(=O)[C@@H]2CSSC[C@@H]3NC(=O)[C@H]([C@@H](C)O)NC(=O)CNC(=O)[C@H](CCCCN)NC(=O)[C@H](C(C)C)NC(=O)[C@@H]4CSSC[C@H](NC(=O)[C@H]([C@@H](C)O)NC(=O)[C@H](CSSC[C@H](NC(=O)[C@H](C(C)C)NC(=O)[C@@H]5CCCN5C1=O)C(=O)NCC(=O)N[C@@H](CCC(=O)O)C(=O)N[C@@H]([C@@H](C)O)C(=O)N4)NC(=O)CNC(=O)[C@@H]1CCCN1C(=O)[C@H]([C@@H](C)O)NC(=O)[C@H](CC(N)=O)NC3=O)C(=O)N[C@@H](CO)C(=O)N[C@@H](Cc1c[nH]c3ccccc13)C(=O)N1CCC[C@H]1C(=O)N[C@@H](C(C)C)C(=O)N2,HPLC,ammonium bicarbonate,"180 µM, 7 days, pH 9.0, 25 °C, deamidation stability",,remaining peptide,97.3 ± 0.4%
